Published values from different studies.
Protocols differ between the studies behind these lines. Numbers after ± are the reported error.
Sequence of UniProt P10636 (whole entry, looked up): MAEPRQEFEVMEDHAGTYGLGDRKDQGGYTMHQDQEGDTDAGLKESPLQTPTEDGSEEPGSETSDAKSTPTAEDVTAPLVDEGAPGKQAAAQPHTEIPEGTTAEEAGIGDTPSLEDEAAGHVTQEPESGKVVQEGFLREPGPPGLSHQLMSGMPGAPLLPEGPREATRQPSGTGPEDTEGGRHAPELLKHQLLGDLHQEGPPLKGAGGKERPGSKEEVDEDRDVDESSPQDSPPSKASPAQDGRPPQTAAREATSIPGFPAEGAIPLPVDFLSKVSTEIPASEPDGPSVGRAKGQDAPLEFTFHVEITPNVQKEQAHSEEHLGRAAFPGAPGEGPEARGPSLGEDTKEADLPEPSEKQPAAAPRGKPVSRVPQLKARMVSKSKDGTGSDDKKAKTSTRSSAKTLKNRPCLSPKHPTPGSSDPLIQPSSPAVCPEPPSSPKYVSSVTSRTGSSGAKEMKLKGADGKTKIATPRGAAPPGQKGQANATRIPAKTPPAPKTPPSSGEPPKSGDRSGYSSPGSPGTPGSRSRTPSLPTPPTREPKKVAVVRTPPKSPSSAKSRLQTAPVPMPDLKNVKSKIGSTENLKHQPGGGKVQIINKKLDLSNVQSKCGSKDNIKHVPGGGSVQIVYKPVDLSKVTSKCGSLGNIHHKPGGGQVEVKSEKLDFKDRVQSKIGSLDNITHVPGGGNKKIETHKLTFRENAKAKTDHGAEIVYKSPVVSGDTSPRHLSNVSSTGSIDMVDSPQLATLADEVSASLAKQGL
Sequence of UniProt O60840 (whole entry, looked up): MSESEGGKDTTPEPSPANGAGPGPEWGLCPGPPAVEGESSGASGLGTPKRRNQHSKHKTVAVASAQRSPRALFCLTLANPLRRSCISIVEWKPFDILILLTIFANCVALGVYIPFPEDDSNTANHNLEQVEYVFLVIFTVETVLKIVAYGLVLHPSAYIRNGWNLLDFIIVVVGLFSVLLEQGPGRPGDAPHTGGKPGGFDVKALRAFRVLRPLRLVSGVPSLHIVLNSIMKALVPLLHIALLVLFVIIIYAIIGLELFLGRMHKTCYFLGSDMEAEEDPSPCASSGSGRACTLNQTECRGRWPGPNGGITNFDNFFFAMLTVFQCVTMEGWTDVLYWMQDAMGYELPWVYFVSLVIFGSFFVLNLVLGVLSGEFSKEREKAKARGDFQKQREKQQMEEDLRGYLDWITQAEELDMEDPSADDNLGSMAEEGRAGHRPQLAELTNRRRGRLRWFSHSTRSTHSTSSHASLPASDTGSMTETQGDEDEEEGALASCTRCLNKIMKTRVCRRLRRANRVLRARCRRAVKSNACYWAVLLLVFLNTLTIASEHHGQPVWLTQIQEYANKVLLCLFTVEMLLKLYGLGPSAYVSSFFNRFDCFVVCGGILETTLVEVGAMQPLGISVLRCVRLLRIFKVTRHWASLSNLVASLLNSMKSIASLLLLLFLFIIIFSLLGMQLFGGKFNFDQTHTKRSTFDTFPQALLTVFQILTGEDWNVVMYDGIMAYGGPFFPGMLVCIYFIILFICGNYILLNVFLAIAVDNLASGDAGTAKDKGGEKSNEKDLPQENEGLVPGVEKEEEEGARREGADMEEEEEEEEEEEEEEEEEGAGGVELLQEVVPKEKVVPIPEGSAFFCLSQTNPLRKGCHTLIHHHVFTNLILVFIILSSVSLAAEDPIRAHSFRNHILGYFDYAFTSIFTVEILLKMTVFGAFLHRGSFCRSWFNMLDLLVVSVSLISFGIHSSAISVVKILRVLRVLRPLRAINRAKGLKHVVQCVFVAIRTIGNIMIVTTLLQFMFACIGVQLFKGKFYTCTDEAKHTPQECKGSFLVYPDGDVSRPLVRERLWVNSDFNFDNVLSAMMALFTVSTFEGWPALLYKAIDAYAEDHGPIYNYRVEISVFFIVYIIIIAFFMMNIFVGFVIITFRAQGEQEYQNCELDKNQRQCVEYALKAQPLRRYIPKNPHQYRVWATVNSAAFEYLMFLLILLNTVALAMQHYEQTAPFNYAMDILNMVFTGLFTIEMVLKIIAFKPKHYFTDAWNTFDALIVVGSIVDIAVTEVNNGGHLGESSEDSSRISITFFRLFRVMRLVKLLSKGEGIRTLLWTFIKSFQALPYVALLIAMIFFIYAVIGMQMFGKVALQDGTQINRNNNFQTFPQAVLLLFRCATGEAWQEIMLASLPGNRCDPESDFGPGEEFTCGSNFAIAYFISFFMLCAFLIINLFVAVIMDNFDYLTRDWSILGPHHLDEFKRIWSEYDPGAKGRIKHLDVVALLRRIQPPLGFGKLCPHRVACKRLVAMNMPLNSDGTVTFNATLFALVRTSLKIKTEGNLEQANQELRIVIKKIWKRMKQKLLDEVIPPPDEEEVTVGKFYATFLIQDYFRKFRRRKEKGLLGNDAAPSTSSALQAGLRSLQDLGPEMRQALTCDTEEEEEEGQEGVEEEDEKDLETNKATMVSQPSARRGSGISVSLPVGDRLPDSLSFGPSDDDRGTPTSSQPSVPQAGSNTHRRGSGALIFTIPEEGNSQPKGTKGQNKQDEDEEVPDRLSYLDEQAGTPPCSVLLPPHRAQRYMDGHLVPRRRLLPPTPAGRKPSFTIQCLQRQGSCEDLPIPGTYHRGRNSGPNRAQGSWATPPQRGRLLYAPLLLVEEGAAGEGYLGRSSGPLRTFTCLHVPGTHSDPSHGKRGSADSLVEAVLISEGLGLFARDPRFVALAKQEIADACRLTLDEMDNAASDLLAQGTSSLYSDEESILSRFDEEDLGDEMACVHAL
Sequence of UniProt Q9HC35 (whole entry, looked up): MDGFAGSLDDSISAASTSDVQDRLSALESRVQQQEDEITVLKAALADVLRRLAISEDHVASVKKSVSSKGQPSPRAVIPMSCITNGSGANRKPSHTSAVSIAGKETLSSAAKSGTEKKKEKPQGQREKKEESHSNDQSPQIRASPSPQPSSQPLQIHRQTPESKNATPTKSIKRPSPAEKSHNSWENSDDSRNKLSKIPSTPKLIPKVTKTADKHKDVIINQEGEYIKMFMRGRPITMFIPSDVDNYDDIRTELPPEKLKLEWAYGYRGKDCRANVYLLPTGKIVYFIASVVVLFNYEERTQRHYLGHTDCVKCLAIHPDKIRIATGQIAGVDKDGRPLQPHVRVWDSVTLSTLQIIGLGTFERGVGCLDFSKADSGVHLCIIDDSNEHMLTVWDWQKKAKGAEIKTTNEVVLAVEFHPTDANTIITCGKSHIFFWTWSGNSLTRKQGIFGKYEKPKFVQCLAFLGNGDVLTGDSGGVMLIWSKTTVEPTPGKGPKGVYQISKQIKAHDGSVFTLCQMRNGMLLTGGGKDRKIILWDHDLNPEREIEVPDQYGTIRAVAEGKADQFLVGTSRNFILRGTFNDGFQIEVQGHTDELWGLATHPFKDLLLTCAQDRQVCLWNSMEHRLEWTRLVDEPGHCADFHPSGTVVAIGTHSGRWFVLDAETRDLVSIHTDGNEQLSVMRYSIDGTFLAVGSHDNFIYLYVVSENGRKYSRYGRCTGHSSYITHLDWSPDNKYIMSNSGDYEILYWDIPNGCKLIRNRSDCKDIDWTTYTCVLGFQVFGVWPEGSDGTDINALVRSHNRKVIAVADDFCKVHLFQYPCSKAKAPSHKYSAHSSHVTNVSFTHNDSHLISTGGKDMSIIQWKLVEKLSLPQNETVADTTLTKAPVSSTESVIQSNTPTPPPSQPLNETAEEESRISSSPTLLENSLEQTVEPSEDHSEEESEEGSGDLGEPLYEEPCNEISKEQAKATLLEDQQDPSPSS
Sequence of UniProt Q04609 (whole entry, looked up): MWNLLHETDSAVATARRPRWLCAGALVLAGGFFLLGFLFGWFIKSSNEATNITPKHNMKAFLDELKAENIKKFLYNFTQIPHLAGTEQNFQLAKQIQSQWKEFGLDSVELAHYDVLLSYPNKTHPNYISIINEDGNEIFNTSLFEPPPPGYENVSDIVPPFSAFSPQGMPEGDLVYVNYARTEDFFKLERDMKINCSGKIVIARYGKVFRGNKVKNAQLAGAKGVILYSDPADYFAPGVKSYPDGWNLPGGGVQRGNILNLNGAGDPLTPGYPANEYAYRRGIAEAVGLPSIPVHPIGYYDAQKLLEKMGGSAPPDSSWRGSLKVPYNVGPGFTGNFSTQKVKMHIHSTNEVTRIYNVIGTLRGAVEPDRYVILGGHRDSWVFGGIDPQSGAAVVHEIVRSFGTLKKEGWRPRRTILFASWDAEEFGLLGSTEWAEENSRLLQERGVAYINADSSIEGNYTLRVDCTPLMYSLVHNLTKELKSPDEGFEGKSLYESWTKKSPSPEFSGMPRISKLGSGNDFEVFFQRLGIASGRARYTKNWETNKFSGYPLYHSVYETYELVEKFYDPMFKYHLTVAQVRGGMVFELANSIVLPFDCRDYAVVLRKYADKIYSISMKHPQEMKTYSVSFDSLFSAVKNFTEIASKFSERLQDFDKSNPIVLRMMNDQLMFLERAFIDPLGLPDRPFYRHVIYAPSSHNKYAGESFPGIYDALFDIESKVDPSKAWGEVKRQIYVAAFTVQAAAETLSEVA
Sequence of UniProt P50897 (whole entry, unmodified, looked up): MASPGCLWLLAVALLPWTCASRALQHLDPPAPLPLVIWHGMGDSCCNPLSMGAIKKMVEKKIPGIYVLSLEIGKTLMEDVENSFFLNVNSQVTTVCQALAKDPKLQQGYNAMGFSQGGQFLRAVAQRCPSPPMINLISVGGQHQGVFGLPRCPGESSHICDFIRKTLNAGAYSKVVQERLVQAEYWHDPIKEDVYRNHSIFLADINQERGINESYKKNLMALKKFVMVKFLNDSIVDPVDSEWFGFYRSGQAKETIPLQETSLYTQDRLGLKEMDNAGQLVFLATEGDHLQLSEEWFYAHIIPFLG

With `COc1cc(C2CC(=O)Nc3nc(N)[nH]c(=O)c32)ccc1O` (stereo not shown) the kcat was 408 ± 60.5 s⁻¹ (uncharacterized protein (Leishmania donovani, UniProt A0A3Q8IA09); glutamine hydrolysis, inhibitor; 100 µM, with: glutamine substrate).
The IC50 ratio of `CCC(C)C(N)C(=O)OC(C)OC(=O)C1=CC(N=C(N)N)C(NC(C)=O)C(C(O)C(O)CO)O1` (mixture of isomers) is reported as ~3 fold (SLC15A1 (Homo sapiens, UniProt P46059); inhibitor; Caco-2; with: [3H]Gly-Sar; relative to: Zan-L-Val).
The half-activation voltage of `CC(C)(C)CCN1C[C@@H]2[C@@H](CNC(=O)c3cc(Cl)cc(Cl)c3)[C@@H]2C1.Cl` is reported as -4.19 ± 0.46 mV (Voltage-dependent L-type calcium channel subunit alpha-1F (Homo sapiens, UniProt O60840); calcium current, whole-cell patch clamp; HEK-293T cells; 5 µM, holding potential -90 mV, with: β2 and α2δ subunits).
`COc1cc(C(=O)NC2CCC(N3CCN(CC4CCC5(CCCC5)C4)CC3)CC2)c(F)cc1Nc1ncc2c(n1)N(C1CCCC1(F)F)CC(F)(F)C(=O)N2C` (stereo not shown) has an inhibition of 7.45% (MST1R (Homo sapiens, UniProt Q04912); cell-free assay, TR-FRET; 10 µM).
Under “stoichiometry per monomer”, `Cc1cccc(Cn2ncc3c4cc(F)c(CN(C)C)cc4n(C)c3c2=O)n1` is recorded as 0.336 ± 0.006 (Pyruvate kinase PKM (PKM, Homo sapiens, UniProt P14618); ITC; pH 7.5, 25 °C).
`CC(C)CCC[C@@H](C)[C@H]1CC[C@H]2[C@@H]3CC=C4C[C@@H](OS(=O)(=O)O)CC[C@]4(C)[C@H]3CC[C@]12C` gave a maximal inhibition of 83.5 ± 5.1% (Prothrombin (F2, Homo sapiens, UniProt P00734); enzyme activity, inhibitor; with: unfractionated heparin 0 µM).
`CCNC(=O)[C@@H]1CCNC(=O)[C@H](CCCNC(=O)c2cnccn2)NC(=O)[C@H](Cc2ccccc2)NC(=O)[C@H](CC2CCCCC2)NC(=O)/C=C\C(=O)N1`: “fold increase in potency” > 150 fold (Proto-oncogene tyrosine-protein kinase Src, SH3-SH2-kinase domain (SRC, Gallus gallus, UniProt P00523); inhibitor; relative to: parent macrocycle).
`O=C([O-])CN(CCN(CC(=O)[O-])Cc1cc(CCC(=O)NCCCCCC(=O)NCCCC[C@H](NC(=O)N[C@@H](CCC(=O)O)C(=O)O)C(=O)O)ccc1O)Cc1cc(CCC(=O)O)ccc1[O-].[68Ga+3]` has a tumour-to-background ratio of 2 (FOLH1 (Homo sapiens, UniProt Q04609); PET/CT; human, liver metastasis; relative to: normal liver).
For `Nc1ncnc2c1ncn2[C@@H]1O[C@H](CO)[C@@H](O[C@H]2O[C@H](CO)[C@@H](OP(=O)(O)O)[C@H](OP(=O)(O)O)[C@H]2O)[C@H]1O`, the Hill coefficient was 1.7 ± 0.4 (Itpr1 (Rattus norvegicus, UniProt P29994, del318-332/R568Q); Ca2+ release, agonist; permeabilized DT40 cells).
`NS(=O)(=O)c1ccc(-n2nc(C(F)(F)F)cc2-c2ccc(F)cc2F)cc1` has an IC20 of 800 nM (Cyclooxygenase-2 (Canis lupus familiaris, UniProt Q8SPQ9); PGE2 formation, inhibitor; dog whole blood; 24 h, with: LPS).
For `COc1cc(N2CCN(C(=O)C3CCCN3)CC2)ccc1Nc1ncc(Cl)c(Nc2ccccc2P(C)(C)=O)n1` (stereo not shown), “onset of degradation” read 0.5 h (ALK tyrosine kinase receptor/Echinoderm microtubule-associated protein-like 4 (Homo sapiens, UniProt Q9HC35+Q9UM73); degrader, immunoblot; Ba/F3 EML4-ALK; 1 µM).
`OC(Cc1cc(-c2ccc(C(O)C(F)(F)F)s2)sc1-c1ccc(-c2sc(-c3ccc(C(O)C(F)(F)F)s3)cc2CC(O)C(F)(F)F)s1)C(F)(F)F` (stereo not shown): “time to maximum fluorescence” 96 h (Microtubule-associated protein tau, aggregated (MAPT, Homo sapiens, UniProt P10636); tau aggregation; sampled 1 to 240 h).
For `CCCCCCCCCCCCCCCC(=O)NC[C@H](NC(=O)CNC(=O)CCNc1ccc([N+](=O)[O-])c2nonc12)C(=O)N[C@H](C(=O)N[C@@H](CCCCN)C(=O)N[C@H](C(=O)N[C@@H](CCCCN)C(=O)N[C@@H](CCCCN)C(=O)O)[C@@H](C)CC)C(C)C`, the enzyme activity was 2 to 3 (Palmitoyl-protein thioesterase 1, T75P/R151X (Homo sapiens, UniProt P50897, T75P); chaperone; C14522 lymphoblasts T75P/T75P; concentration not given, 72 h, unit not given; relative to: untreated).

Repeated from above:
`CC(C)CCC[C@@H](C)[C@H]1CC[C@H]2[C@@H]3CC=C4C[C@@H](OS(=O)(=O)O)CC[C@]4(C)[C@H]3CC[C@]12C` gave a maximal inhibition of 83.5 ± 5.1% (Prothrombin (F2, Homo sapiens, UniProt P00734); enzyme activity, inhibitor; with: unfractionated heparin 0 µM).
